Measured values of several laboratories.
Lines come from different studies, so protocols differ. Numbers after ± are the reported error.
Action: agonist
GLP1R: Glucagon-like peptide 1 receptor (GLP1R, Homo sapiens, UniProt P43220)
Sequence of UniProt P43220 (whole entry, looked up): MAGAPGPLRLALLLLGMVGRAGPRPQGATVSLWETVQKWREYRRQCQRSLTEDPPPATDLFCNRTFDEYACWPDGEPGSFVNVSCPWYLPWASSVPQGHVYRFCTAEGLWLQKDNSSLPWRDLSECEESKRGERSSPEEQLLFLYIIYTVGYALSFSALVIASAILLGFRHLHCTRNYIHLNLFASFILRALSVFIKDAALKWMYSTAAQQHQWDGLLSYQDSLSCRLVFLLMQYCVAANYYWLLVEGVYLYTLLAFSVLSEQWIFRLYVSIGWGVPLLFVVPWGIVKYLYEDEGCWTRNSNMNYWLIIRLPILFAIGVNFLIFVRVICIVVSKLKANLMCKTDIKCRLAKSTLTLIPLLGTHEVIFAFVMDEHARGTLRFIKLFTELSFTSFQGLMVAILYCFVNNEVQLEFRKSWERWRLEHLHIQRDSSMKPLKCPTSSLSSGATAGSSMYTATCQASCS
CNR1: Cannabinoid receptor 1 (CNR1, Homo sapiens, UniProt P21554)
Sequence of UniProt P21554 (whole entry, looked up): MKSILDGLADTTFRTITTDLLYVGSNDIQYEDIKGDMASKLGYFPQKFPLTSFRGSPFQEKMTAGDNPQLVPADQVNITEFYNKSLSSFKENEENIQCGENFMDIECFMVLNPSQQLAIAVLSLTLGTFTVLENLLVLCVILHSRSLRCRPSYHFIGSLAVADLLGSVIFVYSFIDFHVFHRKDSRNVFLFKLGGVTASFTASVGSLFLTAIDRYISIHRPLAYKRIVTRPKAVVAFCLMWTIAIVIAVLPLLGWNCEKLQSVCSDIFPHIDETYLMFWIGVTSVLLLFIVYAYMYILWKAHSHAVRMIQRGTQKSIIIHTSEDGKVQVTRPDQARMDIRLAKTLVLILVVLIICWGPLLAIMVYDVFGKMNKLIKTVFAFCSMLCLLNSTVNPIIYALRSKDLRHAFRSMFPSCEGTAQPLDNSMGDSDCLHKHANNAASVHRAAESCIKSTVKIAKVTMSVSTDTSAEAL
Sequence of UniProt Q9HB89 (whole entry, looked up): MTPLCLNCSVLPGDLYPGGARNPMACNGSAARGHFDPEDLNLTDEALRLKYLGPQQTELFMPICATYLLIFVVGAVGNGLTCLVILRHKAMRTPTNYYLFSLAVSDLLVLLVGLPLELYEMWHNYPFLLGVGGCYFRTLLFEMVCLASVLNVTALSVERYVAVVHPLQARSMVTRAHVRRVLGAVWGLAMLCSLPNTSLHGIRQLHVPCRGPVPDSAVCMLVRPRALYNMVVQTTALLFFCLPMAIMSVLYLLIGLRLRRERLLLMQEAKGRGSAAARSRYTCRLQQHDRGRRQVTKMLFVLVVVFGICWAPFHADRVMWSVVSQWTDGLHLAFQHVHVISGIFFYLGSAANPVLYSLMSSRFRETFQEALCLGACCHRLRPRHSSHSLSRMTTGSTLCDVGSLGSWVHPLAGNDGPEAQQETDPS
Sequence of UniProt P41143 (whole entry, looked up): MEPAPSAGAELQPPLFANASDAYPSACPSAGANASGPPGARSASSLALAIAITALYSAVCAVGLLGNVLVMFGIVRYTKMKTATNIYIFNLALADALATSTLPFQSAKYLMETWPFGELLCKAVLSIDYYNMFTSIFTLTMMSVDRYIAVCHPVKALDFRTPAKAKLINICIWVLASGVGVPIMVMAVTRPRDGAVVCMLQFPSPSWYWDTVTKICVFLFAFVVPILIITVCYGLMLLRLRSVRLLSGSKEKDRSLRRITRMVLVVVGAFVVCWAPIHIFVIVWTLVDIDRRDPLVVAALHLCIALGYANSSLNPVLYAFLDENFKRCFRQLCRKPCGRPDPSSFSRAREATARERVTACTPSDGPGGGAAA
Sequence of UniProt P48546 (whole entry, looked up): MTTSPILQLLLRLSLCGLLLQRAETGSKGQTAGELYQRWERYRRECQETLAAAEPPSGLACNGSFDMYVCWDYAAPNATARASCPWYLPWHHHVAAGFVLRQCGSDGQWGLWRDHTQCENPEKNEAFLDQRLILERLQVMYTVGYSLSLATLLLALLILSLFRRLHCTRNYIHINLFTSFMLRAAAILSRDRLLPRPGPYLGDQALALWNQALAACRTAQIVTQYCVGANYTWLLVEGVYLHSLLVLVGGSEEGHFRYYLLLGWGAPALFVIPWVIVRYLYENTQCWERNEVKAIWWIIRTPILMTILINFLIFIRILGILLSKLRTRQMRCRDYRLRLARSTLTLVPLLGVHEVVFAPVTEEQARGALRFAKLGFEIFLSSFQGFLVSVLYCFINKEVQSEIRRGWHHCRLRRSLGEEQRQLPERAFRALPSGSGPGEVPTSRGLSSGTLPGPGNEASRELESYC
Sequence of UniProt Q9UKP6 (whole entry, unmodified, looked up): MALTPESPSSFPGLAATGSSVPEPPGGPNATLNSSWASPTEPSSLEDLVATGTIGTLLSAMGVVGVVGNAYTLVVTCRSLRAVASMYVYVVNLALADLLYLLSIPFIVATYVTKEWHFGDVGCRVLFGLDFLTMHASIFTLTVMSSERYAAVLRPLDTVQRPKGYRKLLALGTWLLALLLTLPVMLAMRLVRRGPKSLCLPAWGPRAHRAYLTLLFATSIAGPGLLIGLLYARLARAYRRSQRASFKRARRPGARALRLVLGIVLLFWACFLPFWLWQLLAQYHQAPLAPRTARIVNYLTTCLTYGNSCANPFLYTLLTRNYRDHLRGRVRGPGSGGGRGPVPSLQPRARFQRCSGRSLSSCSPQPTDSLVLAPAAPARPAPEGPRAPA
Sequence of UniProt Q8TDU6 (whole entry, looked up): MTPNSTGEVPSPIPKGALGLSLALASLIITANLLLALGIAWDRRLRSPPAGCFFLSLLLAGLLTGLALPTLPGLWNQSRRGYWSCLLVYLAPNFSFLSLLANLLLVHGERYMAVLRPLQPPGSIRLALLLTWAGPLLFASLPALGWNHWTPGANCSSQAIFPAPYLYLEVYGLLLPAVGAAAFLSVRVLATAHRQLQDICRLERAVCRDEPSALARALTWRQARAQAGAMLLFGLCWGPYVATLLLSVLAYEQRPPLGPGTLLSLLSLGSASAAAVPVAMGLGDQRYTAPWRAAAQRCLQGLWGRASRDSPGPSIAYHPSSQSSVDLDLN
Sequence of UniProt P08172 (whole entry, looked up): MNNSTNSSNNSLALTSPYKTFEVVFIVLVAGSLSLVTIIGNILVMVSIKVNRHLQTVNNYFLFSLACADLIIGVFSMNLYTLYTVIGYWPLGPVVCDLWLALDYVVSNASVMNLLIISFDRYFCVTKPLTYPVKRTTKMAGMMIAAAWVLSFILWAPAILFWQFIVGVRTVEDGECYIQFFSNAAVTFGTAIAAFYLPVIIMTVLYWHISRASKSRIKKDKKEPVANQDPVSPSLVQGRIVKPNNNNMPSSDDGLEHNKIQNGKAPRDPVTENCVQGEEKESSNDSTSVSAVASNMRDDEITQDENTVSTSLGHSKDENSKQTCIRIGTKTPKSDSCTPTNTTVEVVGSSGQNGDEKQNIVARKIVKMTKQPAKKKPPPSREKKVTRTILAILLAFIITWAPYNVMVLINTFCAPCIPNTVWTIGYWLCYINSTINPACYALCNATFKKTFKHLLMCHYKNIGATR
Sequence of UniProt P33032 (whole entry, looked up): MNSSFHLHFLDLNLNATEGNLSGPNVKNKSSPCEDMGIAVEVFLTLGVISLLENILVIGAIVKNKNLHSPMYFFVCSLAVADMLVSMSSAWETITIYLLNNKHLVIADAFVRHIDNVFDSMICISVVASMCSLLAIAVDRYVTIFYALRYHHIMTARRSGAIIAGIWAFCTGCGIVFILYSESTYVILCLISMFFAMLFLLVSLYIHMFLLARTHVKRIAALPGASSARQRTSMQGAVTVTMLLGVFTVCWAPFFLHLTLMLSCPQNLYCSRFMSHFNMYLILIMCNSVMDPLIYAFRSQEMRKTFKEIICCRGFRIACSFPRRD

| SMILES | target | assay | system | conditions | EC50 [nM] |
| --- | --- | --- | --- | --- | --- |
| CC(CCC(=O)NCC(=O)O)C1CCC2C3CCC4CC(O)CCC4(C)C3CCC12C (stereo not drawn) | GPBAR1 (Homo sapiens, UniProt Q8TDU6) | – | – | – | 290 ± 90 |
| CC[C@H](C)[C@H](NC(=O)[C@H](Cc1ccccc1)NC(=O)[C@H](CCC(=O)O)NC(=O)[C@H](CCCCN)NC(=O)[C@H](C)NC(=O)[C@H](C)NC(=O)[C@H](CCC(N)=O)NC(=O)CNC(=O)[C@H](CCC(=O)O)NC(=O)[C@H](CC(C)C)NC(=O)[C@H](Cc1ccc(O)cc1)NC(=O)[C@H](CO)NC(=O)[C@H](CO)NC(=O)[C@@H](NC(=O)[C@H](CC(=O)O)NC(=O)[C@H](CO)NC(=O)[C@@H](NC(=O)[C@H](Cc1ccccc1)NC(=O)[C@@H](NC(=O)CNC(=O)[C@H](CCC(=O)O)NC(=O)CNC(=O)[C@H](Cc1c[nH]cn1)NC(C)=O)[C@@H](C)O)[C@@H](C)O)C(C)C)C(=O)N[C@@H](C)C(=O)N[C@@H](Cc1c[nH]c2ccccc12)C(=O)N[C@@H](CC(C)C)C(=O)N[C@H](C(=O)N[C@@H](CCCCN)CN(CC(=O)N[C@@H](CCCNC(=N)N)C(=O)N[C@@H](CCCCN)CN(CC(N)=O)S(C)(=O)=O)S(C)(=O)=O)C(C)C | GLP1R | reporter gene, luciferase | – | – | 1 |
| CCCCCn1ccc(C(=O)N[C@H](C)c2ccccc2)n1 | CNR1 | calcium signal | – | – | > 10000 |
| CCCCCCCCCCCCCCCC(=O)N[C@@H](CCC(=O)NCCCC[C@H](NC(=O)[C@H](CC(=O)O)NC(=O)[C@H](CO)NC(=O)[C@@H](NC(=O)[C@H](Cc1ccccc1)NC(=O)[C@@H](NC(=O)CNC(=O)[C@H](CCC(N)=O)NC(=O)[C@H](C)NC(=O)[C@H](Cc1c[nH]cn1)NCC(F)(F)F)[C@@H](C)O)[C@@H](C)O)C(=O)N[C@@H](CO)C(=O)N[C@@H](CCCCN)C(=O)N[C@@H](Cc1ccc(O)cc1)C(=O)N[C@@H](CC(C)C)C(=O)N[C@@H](CC(=O)O)C(=O)N[C@@H](CCC(=O)O)C(=O)N[C@@H](CCCNC(=N)N)C(=O)N[C@@H](C)C(=O)N[C@@H](C)C(=O)N[C@@H](CCC(N)=O)C(=O)N[C@@H](CC(=O)O)C(=O)N[C@@H](Cc1ccccc1)C(=O)N[C@H](C(=O)N[C@@H](CCC(N)=O)C(=O)N[C@@H](Cc1c[nH]c2ccccc12)C(=O)N[C@@H](CC(C)C)C(=O)N[C@@H](CC(C)C)C(=O)N[C@@H](CC(=O)O)C(=O)NCC(=O)NCC(=O)N1CCC[C@H]1C(=O)N[C@@H](CO)C(=O)N[C@@H](CO)C(=O)NCC(=O)N[C@@H](C)C(=O)N1CCC[C@H]1C(=O)N1CCC[C@H]1C(=O)N1CCC[C@H]1C(=O)N[C@@H](CO)C(N)=O)C(C)C)C(=O)O | GIPR (Homo sapiens, UniProt P48546) | reporter gene, luciferase | – | – | 0.00316 |
| CCCCCCCCCCCCCCCCCC(=O)NC[C@H]1CC[C@H](C(=O)N[C@@H](CCC(=O)NCCCOCCOCCOCCCNC(=O)COCC(=O)N[C@@H](Cc2ccc(O)cc2)C(=O)NC(C)(Cc2ccccc2)C(=O)N[C@@H](CC(C)C)C(=O)N[C@@H](CCCC)C(=O)N[C@@H](CCCNC(=N)N)C(=O)N2CCC[C@H]2C(=O)N[C@@H](CCCNC(=N)NC)C(=O)N[C@@H](CC(N)=O)C(N)=O)C(=O)O)CC1 (stereo partly drawn) | NMUR1 (Homo sapiens, UniProt Q9HB89) | β-arrestin recruitment | – | – | > 10000 |
| CC[C@H](C)[C@@H]1NC(=O)CN(CC(N)=O)C(=O)[C@@H]2CCCN2C(=O)[C@@H](NC(=O)[C@H](CC(N)=O)NC(=O)[C@@H](N)CCC(N)=O)COC(=O)[C@H](CCSC)NC(=O)[C@H](Cc2c[nH]c3ccccc23)NC(=O)[C@H](CCC(N)=O)NC(=O)CNC(=O)[C@H](Cc2ccccc2)NC1=O | Fsr quorum sensing protein (Enterococcus faecalis, UniProt A0ACD6TCR9) | Fsr quorum sensing, β-galactosidase reporter | – | – | > 10000 |
| CCCCCn1ccc(C(=O)NC(C)(C)c2ccc(CNC(C)=O)cc2)n1 | CNR1 | calcium signal | – | – | 221 |
| CC[C@H](C)[C@H](NC(=O)[C@H](Cc1ccccc1)NC(=O)[C@H](CCC(=O)O)NC(=O)[C@H](CCCCN)NC(=O)[C@H](C)NC(=O)[C@H](C)NC(=O)[C@H](CCC(N)=O)NC(=O)CNC(=O)[C@H](CCC(=O)O)NC(=O)[C@H](CC(C)C)NC(=O)[C@H](Cc1ccc(O)cc1)NC(=O)[C@H](CO)NC(=O)[C@H](CO)NC(=O)[C@@H](NC(=O)[C@H](CC(=O)O)NC(=O)[C@H](CO)NC(=O)[C@@H](NC(=O)[C@H](Cc1ccccc1)NC(=O)[C@@H](NC(=O)CNC(=O)[C@H](CCC(=O)O)NC(=O)C(C)(C)NC(=O)[C@H](Cc1c[nH]cn1)NC(C)=O)[C@@H](C)O)[C@@H](C)O)C(C)C)C(=O)N[C@@H](C)C(=O)N[C@@H](Cc1c[nH]c2ccccc12)C(=O)N[C@@H](CC(C)C)C(=O)N[C@H](C(=O)N[C@@H](CCCCN)CN(CC(=O)N[C@@H](CCCNC(=N)N)C(=O)N[C@@H](CCCCN)CN(CC(N)=O)S(C)(=O)=O)S(C)(=O)=O)C(C)C | GLP1R | reporter gene, luciferase | – | – | 0.44 |
| CC(C)[C@H](NC(=O)[C@@H]1CSSC(C)(C)[C@H](NC(=O)[C@@H](N)CC(=O)O)C(=O)N[C@@H](Cc2ccccc2)C(=O)N[C@@H](Cc2c[nH]c3ccccc23)C(=O)N[C@@H](CCCCN)C(=O)N[C@@H](Cc2ccc(O)cc2)C(=O)N1)C(=O)O | UTS2R (Homo sapiens, UniProt Q9UKP6, Y305A) | IP1 accumulation, HTRF | HEK293T | 1 h, 37 °C, Y305A mutant, 7.43 | 25.1 |
| O=C(O)CCn1c(=O)oc2cc(Cl)c(Cl)cc21 | CHRM2 (Homo sapiens, UniProt P08172) | – | – | – | > 50100 |
| CC[C@H](C)[C@H](NC(=O)[C@H](Cc1ccccc1)NC(=O)[C@H](CCC(=O)O)NC(=O)[C@H](CCCNC(=N)N)NC(=O)[C@@H](NC(=O)[C@H](C)NC(=O)[C@H](CCC(=O)O)NC(=O)[C@H](CCC(=O)O)NC(=O)[C@H](CCC(=O)O)NC(=O)[C@H](CC(C)C)NC(=O)[C@H](Cc1ccc(O)cc1)NC(=O)[C@H](CCCCN)NC(=O)[C@H](CO)NC(=O)[C@H](CC(C)C)NC(=O)[C@H](CC(=O)O)NC(=O)[C@H](CO)NC(=O)[C@@H](NC(=O)[C@H](Cc1ccccc1)NC(=O)[C@@H](NC(=O)CNC(=O)[C@H](CCC(N)=O)NC(=O)[C@@H](CO)NC(=O)[C@@H](N)Cc1c[nH]cn1)[C@@H](C)O)[C@@H](C)O)C(C)C)C(=O)N[C@@H](C)C(=O)N[C@@H](Cc1c[nH]c2ccccc12)C(=O)N[C@@H](CC(C)C)C(=O)N[C@@H](CCCCN)C(=O)N[C@@H](CC(N)=O)C(=O)NCC(=O)NCC(=O)N1CCC[C@H]1C(=O)N[C@@H](CO)C(=O)N[C@@H](Cc1ccc(O)cc1)C(=O)N[C@@H](CO)C(=O)N[C@@H](CCSC)C(=O)N[C@@H](CCC(=O)O)C(=O)N[C@@H](Cc1c[nH]cn1)C(=O)N[C@@H](Cc1ccccc1)C(=O)N[C@@H](CCCNC(=N)N)C(=O)N[C@@H](Cc1c[nH]c2ccccc12)C(=O)NCC(=O)N[C@@H](CCCCN)C(=O)N1CCC[C@H]1C(=O)N[C@H](C(N)=O)C(C)C | MC5R (Homo sapiens, UniProt P33032) | cAMP, TR-FRET | – | – | 274 |
| Cc1cc(O)cc(C)c1C[C@H](N)C(=O)N[C@H](CCCNC(=N)N)C(=O)N[C@@H](Cc1ccccc1)C(=O)N(C)CC(=O)N(C)Cc1cc(C(F)(F)F)cc(C(F)(F)F)c1 | OPRD1 (Homo sapiens, UniProt P41143) | cAMP, BRET | – | – | 0.42 |

For quick reference, copied from above:
| SMILES | target | assay | system | conditions | EC50 [nM] |
| --- | --- | --- | --- | --- | --- |
| Cc1cc(O)cc(C)c1C[C@H](N)C(=O)N[C@H](CCCNC(=N)N)C(=O)N[C@@H](Cc1ccccc1)C(=O)N(C)CC(=O)N(C)Cc1cc(C(F)(F)F)cc(C(F)(F)F)c1 | OPRD1 (Homo sapiens, UniProt P41143) | cAMP, BRET | – | – | 0.42 |
